Published values pooled from the literature.
Parts stem from different laboratories: compare values within a part only. ± marks the error that the study gave.

Set 1
Organism: SARS-CoV-2 Wuhan spike VSV pseudovirus
Read-out: pseudovirus entry
Tested at: concentration not given
Quantity: inhibition
Cc1nn(-c2ccccc2)c2sc(C(=O)NCCCN3CCC(Cc4ccccc4)CC3)cc12: 41%
Nc1nc(-c2ccc3c(c2)OCO3)cs1: 36%
Cc1ccc(-n2nnc(C(=O)N3CCN(Cc4ccccc4)CC3)c2-c2cccnc2)cc1: 38%
CSc1cccc(NC(=O)C(=O)c2cccn2Cc2ccc(C)c(C)c2)c1: 39%
O=S1(=O)C=C(Br)c2ccccc21: 40%
O=C(CN1CC(=O)Oc2ccccc21)Nc1cc(C(F)(F)F)ccc1N1CCCCC1: 42%
COCCCN1CN(c2cc(Cl)cc(Cl)c2)c2nc(C)c(C)c(=O)n2C1: 43%
COc1ccc(C(=O)N2c3cc(CNC(=O)c4ccnn4C)ccc3CC2C)cc1 (stereo not drawn): 39%
Cn1cc(C(=O)O/N=C(\N)c2ccc(C(C)(C)C)cc2)c(C(F)(F)F)n1: 49%
CC(=O)N1CCCSc2ccc(S(=O)(=O)N3CCSc4ccccc43)cc21: 40%
O=C1CN(C(=O)COc2ccc(C3SCCCS3)cc2)CCN1: 40%
Cc1oc2ncnc(N3CCC(C(=O)NC4CCCCCCC4)CC3)c2c1C: 42%

Further values, each from its own experiment
rep papain-like protease: Replicase polyprotein 1ab, papain-like protease (rep, Severe acute respiratory syndrome coronavirus 2, UniProt P0DTD1)
rep nsp12 RdRp: Replicase polyprotein 1ab, nsp12 RdRp (rep, Severe acute respiratory syndrome coronavirus 2, UniProt P0DTD1)
rep nsp14: Replicase polyprotein 1ab, nsp14 (rep, Severe acute respiratory syndrome coronavirus 2, UniProt P0DTD1)
N#C[C@@]1(n2ccc(N)nc2=O)O[C@H](CO)[C@@H](O)[C@H]1O
EC50 (SARS-CoV-2; viral replication; Calu-3, Gamma): 200 ± 100 nM

O=C(Cc1cccc(OC(F)(F)F)c1)Nc1ccc(CCCCc2nnc(NC(=O)Cc3ccccn3)s2)nn1
activity (rep papain-like protease; concentration not given, C111S mutant; relative to: positive control): 14.9%

Nc1ccc(/C=C/C(=O)NCc2cc3cc(-c4ccc(C(=O)N5CCC(F)(F)CC5)cc4)cc(-c4ccc(F)cc4)c3o2)cn1
BLI response (rep nsp12 RdRp; binding, biolayer interferometry; concentration not given): -0.02 nm

OC[C@H]1O[C@@H](n2cnc3c(N[C@@H]4CCOC4)ncnc32)[C@H](O)[C@@H]1O
EC50 (SARS-CoV-2; viral RNA copies; Vero C1008, Omicron BA.1; 48 h): 2930 ± 120 nM

O=C(Nc1nc(-c2ccc(O)c(O)c2)c(-c2ccccc2)s1)c1ccc(O)c(O)c1
BLI response (rep nsp12 RdRp; binding, biolayer interferometry; concentration not given): 0.8 nm

O=C(NC1CCN(c2ncnc3[nH]cnc23)CC1)c1cccc(S(=O)(=O)N2CCCCC2)c1
inhibition (rep nsp14; NSP14 enzyme activity, inhibitor; 0.7812 µM): 11.8%

CC(C)Nc1nc2cc(Cl)c(Cl)cc2n1[C@H]1O[C@@H](CO)[C@H](O)[C@@H]1O
EC90 (SARS-CoV-2; viral replication; Vero C1008, Omicron BA.1; 48 h, reduction of infectious virus): 12200 ± 330 nM

CCC(CC)[C@H](NC(C)=O)[C@@H]1[C@H](O)[C@@H](C(=O)O)C[C@H]1N=C(N)N
IC50 (neuraminidase (Influenza B virus, UniProt C0LT34, G407S)): 1.5 ± 0.3 nM

O=C(NC1CCN(c2ncnc3[nH]cnc23)CC1)c1cccc(NS(=O)(=O)c2cccs2)c1
inhibition (rep nsp14; enzyme activity; SARS-CoV-2; concentration not given): 28%

SLVAVTAAQSTIEEQAKTFLDKFS
relative binding (SARS-CoV-2 spike RBD; peptide spot array; peptide; concentration not given; relative to: wild-type ACE2 peptide): 3.67

CCC(CC)COC(=O)[C@H](C)N[P@](=O)(OC[C@H]1O[C@@](C#N)(c2ccc3c(N)ncnn23)[C@H](O)[C@@H]1O)Oc1ccccc1
EC50 (SARS-CoV-2; viral replication; Calu-3, Alpha): 900 ± 1200 nM

Cl.N[C@@H](Cc1ccccc1)C(=O)N1C/C(=C/c2ccc(Cl)c(Cl)c2)C(=O)/C(=C\c2ccc(Cl)c(Cl)c2)C1
activity (rep papain-like protease; concentration not given, C111S mutant; relative to: positive control): 27.8%

For quick reference, copied from above (further values, each from its own experiment):
CCC(CC)[C@H](NC(C)=O)[C@@H]1[C@H](O)[C@@H](C(=O)O)C[C@H]1N=C(N)N
IC50 (neuraminidase (Influenza B virus, UniProt C0LT34, G407S)): 1.5 ± 0.3 nM
